Assay results gathered from unrelated publications.
Compare with care: the assays were run in different laboratories.
Organism: Staphylococcus aureus

SMILES	assay	test system	setting	MIC
c1ccc(CN2CCOCCOCCN(CCCCCCCCCCCCN3CCOCCOCCN(CCCCCCCCCCCCN4CCOCCOCCN(Cc5ccccc5)CCOCCOCC4)CCOCCOCC3)CCOCCOCC2)cc1	checkerboard, refers to: norfloxacin	1199B	500 nM, together with: norfloxacin	0.5 µM
C[C@@H](N)[C@H](O)CCCCCCCC(=O)CCCCCCCCCCCCCC[C@@H](O[C@@H]1O[C@H](CO)[C@H](O)[C@H](O)[C@H]1O)[C@H](N)CO	microbial growth, resazurin	ATCC12600	6 h	11.3 µM
CC[C@H](C)[C@H](NC(=O)[C@H](NC(=O)[C@@H](CCC(N)=O)NC(=O)[C@@H](N)COC(=O)[C@@H](NC(=O)[C@@H](Cc1ccccc1)NC)[C@@H](C)CC)[C@@H](C)CC)C(=O)N[C@@H](CO)C(=O)N[C@H]1C(=O)N[C@@H](C)C(=O)N[C@@H](C2CCCCC2)C(=O)N[C@@H]([C@@H](C)CC)C(=O)O[C@H]1C	broth microdilution	ATCC 700698, MRSA, brain heart infusion broth	16 h, 37 °C	0.5 µg/mL
CC[C@H](C)c1occ2c(=O)c(C(=O)O)c(O)cc-2c1C	microbial growth, broth dilution	ATCC29213		50 µM
CC[C@H](C)[C@H](N)C1=N[C@H](C(=O)N[C@@H](CC(C)C)C(=O)N[C@H](CCC(=O)O)C(=O)N[C@H](C(=O)N[C@H]2CCCCNC(=O)[C@H](CC(N)=O)NC(=O)[C@@H](CC(=O)O)NC(=O)[C@H](Cc3c[nH]cn3)NC(=O)[C@@H](Cc3ccc4ccccc4c3)NC(=O)[C@H]([C@@H](C)CC)NC(=O)[C@@H](CCCN)NC2=O)[C@@H](C)CC)CS1	broth microdilution	ATCC 29213, LB medium	18 h, 37 °C, together with: ZnSO4 0.3 mM	0.5 µg/mL
CN1C(=O)[C@@H]2NC(=O)[C@@H]3NC(=O)[C@@H](c4ccc(O)cc4)NC(=O)[C@H](NC(=O)C(NCc4cc(F)cc(F)c4F)c4ccc(O)cc4)Cc4c[nH]c5cc(ccc45)-c4cc3cc(c4O)Oc3ccc(cc3)C[C@H]1C(=O)N[C@@H](C(=O)O)c1ccc(O)c(c1)Oc1ccc2cc1 (stereo partly shown)		ATCC 33591 MRSA, Mueller-Hinton broth		8 µg/mL
CCCN1CCNC1=[S+][Ag-3]([O][N+](=O)[O-])([P+](c1ccccc1)(c1ccccc1)c1ccccc1)[P+](c1ccccc1)(c1ccccc1)c1ccccc1	agar dilution	methicillin-resistant	24 h, 37 °C	50 µg/mL
CCCCCCCCCCCCCC(=O)N[C@H](CCN)C(=O)N[C@@H]1C(=O)N[C@@H](CCN)C(=O)N[C@@H](CC(C)C)C(=O)N[C@@H](CCN)C(=O)N[C@H](Cc2ccccc2)C(=O)N[C@@H](CC(C)C)C(=O)N[C@@H](CCN)C(=O)N[C@H](CCN)C(=O)N[C@@H](C(C)C)C(=O)N[C@@H](CC(=O)O)C(=O)O[C@@H]1C	broth microdilution	BNCC 186335, azithromycin and penicillin resistant		2 µg/mL
CC[C@H](C)[C@@H]1NC(=O)[C@@H]([C@@H](C)O)NC(=O)CNC(=O)[C@H](CC(=O)O)NC(=O)CNC(=O)[C@H](CC(=O)O)NC(=O)CNC(=O)[C@H]2CCCCN2C(=O)[C@@H](NC(=O)[C@H](CC(N)=O)NC(=O)/C=C/CCCCCCCCCC(C)C)CNC(=O)[C@@H]2CCCN2C1=O		MRSA USA300	16 h, 37 °C, together with: Ca2+ 10 mM	4 µg/mL
CCCCCCCCCNS(=O)(=O)c1ccc(-n2nnc(C(C)=NNC(=N)N)c2C)cc1	microbial growth, broth dilution	MRSA USA300	drug-resistant strain	1 µg/mL
O=C1c2ccccc2NC(c2ccc(O)c(O)c2)N1/N=C/c1ccc(O)c(O)c1 (stereo not shown)	microbial growth, broth dilution		drug-resistant strain, clinical isolate	164 µM
CC[C@H](C)[C@H](NC(=O)[C@H](CCCCN)NC(=O)[C@H](CC(N)=O)NC(=O)[C@H](Cc1c[nH]c2ccccc12)NC(=O)[C@H](Cc1ccccc1)NC(=O)[C@H](CCCCN)NC(=O)[C@H](CCCCNC(=N)N)NC(=O)[C@H](CC(C)C)NC(=O)[C@H](Cc1c[nH]c2ccccc12)NC(=O)[C@H](CCCCN)NC(=O)[C@H](CCCCNC(=N)N)NC(=O)[C@H](CC(C)C)NC(=O)CNC(C)=O)C(=O)N[C@@H](CCCCN)C(=O)N[C@@H](CCCCNC(=N)N)C(N)=O	broth microdilution	multidrug-resistant		3.12 µM
CC(C)C[C@@H]1NC(=O)[C@H](C)NC(=O)[C@H](NC(=O)[C@H](CO)NC(=O)[C@@H](CCCCN)NC(=O)[C@@H](CC(C)C)NC(=O)[C@H](C)N)[C@H](C(N)=O)OC(=O)[C@H](CC(C)C)NC1=O		MSSA ATCC 29213	TFA salt	16 µg/mL
N=C(N)NCCC[C@@H]1NC(=O)[C@H](CCCNC(=N)N)NC(=O)[C@H](CCCNC(=N)N)NC(=O)[C@H](CCCNC(=N)N)NC(=O)[C@H](Cc2c[nH]c3ccccc23)NC(=O)[C@H](CCCNC(=N)N)NC(=O)[C@H](CCCNC(=N)N)NC(=O)[C@@H](N)CCCCn2cc(nn2)C[C@@H](C(N)=O)NC1=O		ATCC 25923	24 h, 37 °C	7.8 µg/mL
CCCO[C@H]1[C@H](O)[C@@H](N)[C@@H](O[C@H]2[C@H](O[C@@H]3O[C@H](CO)[C@@H](O[C@H]4O[C@@H](CN)[C@@H](O)[C@H](O)[C@H]4N)[C@H]3O)[C@@H](O)[C@H](N)C[C@@H]2N)O[C@@H]1CO	microbial growth, broth dilution	MRSA	clinical isolate	16 µg/mL
CC(=O)N[C@@H](CCCNC(=N)N)C(=O)N[C@@H](Cc1c[nH]c2ccccc12)C(=O)N[C@@H](CCCNC(=N)N)C(=O)N[C@@H](Cc1c[nH]c2ccccc12)C(=O)N[C@@H](Cc1c[nH]c2ccccc12)C(=O)N[C@@H](CCCCN)C(=O)N[C@@H](Cc1ccccc1)C(=O)N[C@H](C(N)=O)C(C)C		MRSA ATCC 33591, MEM medium	overnight, 37 °C	1.4 µM
C=Cc1cc(OC)c2c(c1)c(=O)oc1c2cc(OC)c2c(O)ccc([C@@H]3O[C@H](C)[C@H](O)[C@@](C)(O)[C@H]3O)c21	microbial growth, broth dilution	NEWMAN		0.0625 µg/mL
CC(C)=CCc1c(O)ccc2c1O[C@H]1c3cc4c(cc3OC[C@@H]21)OC(C)(C)C=C4				inactive
CCCCc1ccc(N2C(=O)/C(=N\NC(=N)N)c3cc(C)ccc32)cc1	broth microdilution	BAA41 MRSA	18 h, 37 °C	3 µg/mL

Some of these lines once more:
SMILES	assay	test system	setting	MIC
CC[C@H](C)[C@H](NC(=O)[C@H](CCCCN)NC(=O)[C@H](CC(N)=O)NC(=O)[C@H](Cc1c[nH]c2ccccc12)NC(=O)[C@H](Cc1ccccc1)NC(=O)[C@H](CCCCN)NC(=O)[C@H](CCCCNC(=N)N)NC(=O)[C@H](CC(C)C)NC(=O)[C@H](Cc1c[nH]c2ccccc12)NC(=O)[C@H](CCCCN)NC(=O)[C@H](CCCCNC(=N)N)NC(=O)[C@H](CC(C)C)NC(=O)CNC(C)=O)C(=O)N[C@@H](CCCCN)C(=O)N[C@@H](CCCCNC(=N)N)C(N)=O	broth microdilution	multidrug-resistant		3.12 µM
